# Measurements gathered from unrelated publications.
# Parts stem from different laboratories: compare values within a part only.

# Study 1 — technique: universal PBM; molecule type: double-stranded DNA, one strand shown; sample: in vitro; concentration: not given; direction: higher = stronger binding
# Target: Sal-like protein 4, full length isoform B (SALL4, Homo sapiens, UniProt Q9UJQ4-2, residues 1-616)
# Setting: 8-mer, flanks averaged, mean of replicates
Oligonucleotide,E-score
ACCTGAGT,-0.0979
ATTATCCC,0.177
GAGGTCGA,-0.136
ACCAATTA,0.286
GCCTAAGA,-0.0442
CCATTCTC,-0.0912
ACTCTCTG,-0.0199
AGCGCTTC,0.0246
CTCCCAGC,-0.259

# Study 2 — technique: RNA Bind-n-Seq; molecule type: RNA; sample: in vitro; concentration: 365 nM; baseline: no-protein control; direction: higher = stronger binding
# Target: RNA binding protein fox-1 homolog 2, RRM domain, GST-SBP tag (RBFOX2, Homo sapiens, UniProt O43251-10, residues 100-194)
# Setting: natural RNA segment, single round, ends assumed
# Construct (chain): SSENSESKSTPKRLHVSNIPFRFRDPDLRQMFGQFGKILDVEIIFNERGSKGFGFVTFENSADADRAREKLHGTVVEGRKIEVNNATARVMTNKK
Oligonucleotide,RBNS enrichment (R)
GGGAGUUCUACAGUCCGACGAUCAAUAGAAGUUCACUUAGCUACUUUAGAUAACCUUGCAUUACCACUGGUCUGGCCACGUUUGUUAAAUCCUUAUACUGAUAUUCUUCUAAAGAGUAAAUCUCAUCAUUUUUUGGAAUUCUCGGGUGCCAA,3.36
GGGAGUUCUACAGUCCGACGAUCGAAGUUCUUAACUGUUAAAAAGUUACUUUUGACUUUGCUAGAUAAGGAGGCGAACCCAAGUGUGUGUCUCCUCUGAAUGUCUCAGAACUCAGUUGUGAAGGAGCAGGAGGUGGAAUUCUCGGGUGCCAA,0.483
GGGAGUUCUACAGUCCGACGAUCCUUGGACCUCUACCAAAACAUAUGAUACAGAAAACCAGGAAACGUAAAUAUUUUCACCACGAUCGAUUAGACUGGGAUGAACACAGUUCUGCCGGCAGAUAUGUUUCAAGUGGAAUUCUCGGGUGCCAA,0.356
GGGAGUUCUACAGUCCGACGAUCUCUUCCUCCCUUCCUCCCCCUGCCUUCCUCUUAACCUAUGUGCUCAUCCUUGCUACUUGAGGCUGUUAUUUCCCUCCGAGUAUUUAAGGAGCCCAAACACCUUGGUCUUCUGGAAUUCUCGGGUGCCAA,0.634
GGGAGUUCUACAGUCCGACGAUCCUAAUAUAAUCCAGACAGCAAUGGUGUUAGUAUUUUUGGUCUGUGUACCCACGUGCCCAUGUAUAUGUUUGUGUGUGUGUAUGUGUGAGUGUGUGUGUAUGUGUGUGUGUUGGAAUUCUCGGGUGCCAA,6.9
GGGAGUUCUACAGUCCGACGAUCUUCACAUCGGAGCUGCGUGUGAAAUGGAUUCAGCAUUCCGCGCCCUUGCUUUACAAUUUUAGUCCUGUGCAGACUGUGGUGUUUUUACUGAGCGUAUUUGAAUUUUUUCAUGGAAUUCUCGGGUGCCAA,0.499
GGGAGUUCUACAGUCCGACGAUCGCUCGGUGGAUGCUGGGCCCAAGGUGUAGGCAGAAUGAUUGGCCAGCUGGCCUCUCUCAUCUCUCAGAUCAUGUCUAUCUCAGGGGCCACAAUAAGAAACAUACUCUCCAUGGAAUUCUCGGGUGCCAA,0.212
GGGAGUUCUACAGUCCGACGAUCUGUAUGGAAAUAAAACUUGUUUGAAAAUUUGGAAUAGUGCUGCUGCCAGCUUAUUUUUCUGGUACUUGUAUUUUCACAUGUUAAAUGAUCUUUAUAUAUGUUGAAUUAACUGGAAUUCUCGGGUGCCAA,0.873
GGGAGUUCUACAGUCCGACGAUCUUGCCUUCCUGGAGUAAAUAUUGGCACAGAUUUCAUUUGAGAGAACUCAGCCCCCUGGUCUAAGCUGGACUUACCUCUGUGGAUUCUGAAAUUAAAGAAGUGAGUUGCUAUGGAAUUCUCGGGUGCCAA,2.14
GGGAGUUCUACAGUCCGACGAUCGCAUGUUUUAGAAGCUUGCCUCACAGACUUCCAUGCCUCUCCAUUCAGCCGAUGACUUCAGGGUGUCAAACUGUUUUAAUUUUUCAAACAAAUGGAACAGAAGCCAUUGUUGGAAUUCUCGGGUGCCAA,0.83

# Study 3 — technique: protein-binding microarray; molecule type: double-stranded DNA, one strand shown; sample: in vitro; concentration: 940 nM top; setting: 60-bp whole probe; with: salmon DNA 0.4 mg/ml; baseline: random background probes; direction: higher = stronger binding; all sequences stand within: GCCTAGCAC … GTCTTGATTCGCTTGACGCTGCTG
# Target: Interferon regulatory factor 5, full length, phosphomimetic (IRF5, Homo sapiens, UniProt Q13568-2, residues 1-514, S451D/S453D/S456D/S462D)
Oligonucleotide,fitted relative affinity
GACGGTGTCGGGTTTCGGGACGTGCTA,1.81 z-score
TTAGGTCTCGATATCGGTTAGTGCTAG,4.52 z-score
GACGATATCGGGACGGGAGACGTGCTA,-0.402 z-score
GTAGGTTTCGGTTCCGGTTAGTGCTAG,15.1 z-score
CACGGTCTCGGACTGGGGACGTGCTAG,0.667 z-score
TACGGTTTCGGTATCGGGACGTGCTAG,12.5 z-score

# Further values, each from its own experiment
Molecule,target,assay,system,setting,scale,endpoint,result
"PhoQ, residues 284 288 289 292 302 303 SCKMEA","PhoP, residues 12 14 15 18 19 NHFIF (Escherichia coli, UniProt P23836)","Sort-seq, measured: YFP reporter",E. coli,"PhoQ-PhoP variant library, with: 10 µM Mg2+","baseline: high Mg2+ state, higher = stronger signaling",fold induction,22.4

# Repeated from above (study 1):
Oligonucleotide,E-score
CTCCCAGC,-0.259
GCCTAAGA,-0.0442
CCATTCTC,-0.0912
